Published values of several laboratories.
A part holds a random share of what one study measured.
Chain of UniProt P36897 (whole entry, looked up): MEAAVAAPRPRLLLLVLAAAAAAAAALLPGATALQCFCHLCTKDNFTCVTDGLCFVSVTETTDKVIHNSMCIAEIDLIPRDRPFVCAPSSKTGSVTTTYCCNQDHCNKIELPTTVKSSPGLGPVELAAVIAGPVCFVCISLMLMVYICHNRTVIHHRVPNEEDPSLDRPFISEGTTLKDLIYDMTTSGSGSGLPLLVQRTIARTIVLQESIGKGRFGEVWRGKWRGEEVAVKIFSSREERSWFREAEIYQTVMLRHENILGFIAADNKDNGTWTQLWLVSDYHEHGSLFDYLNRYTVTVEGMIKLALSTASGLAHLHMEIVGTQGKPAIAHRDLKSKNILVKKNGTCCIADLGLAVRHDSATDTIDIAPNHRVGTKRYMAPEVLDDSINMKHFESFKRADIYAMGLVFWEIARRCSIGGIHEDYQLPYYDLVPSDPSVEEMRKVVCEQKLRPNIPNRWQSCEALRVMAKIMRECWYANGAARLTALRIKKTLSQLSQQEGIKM
Chain of UniProt P08922 (whole entry, looked up): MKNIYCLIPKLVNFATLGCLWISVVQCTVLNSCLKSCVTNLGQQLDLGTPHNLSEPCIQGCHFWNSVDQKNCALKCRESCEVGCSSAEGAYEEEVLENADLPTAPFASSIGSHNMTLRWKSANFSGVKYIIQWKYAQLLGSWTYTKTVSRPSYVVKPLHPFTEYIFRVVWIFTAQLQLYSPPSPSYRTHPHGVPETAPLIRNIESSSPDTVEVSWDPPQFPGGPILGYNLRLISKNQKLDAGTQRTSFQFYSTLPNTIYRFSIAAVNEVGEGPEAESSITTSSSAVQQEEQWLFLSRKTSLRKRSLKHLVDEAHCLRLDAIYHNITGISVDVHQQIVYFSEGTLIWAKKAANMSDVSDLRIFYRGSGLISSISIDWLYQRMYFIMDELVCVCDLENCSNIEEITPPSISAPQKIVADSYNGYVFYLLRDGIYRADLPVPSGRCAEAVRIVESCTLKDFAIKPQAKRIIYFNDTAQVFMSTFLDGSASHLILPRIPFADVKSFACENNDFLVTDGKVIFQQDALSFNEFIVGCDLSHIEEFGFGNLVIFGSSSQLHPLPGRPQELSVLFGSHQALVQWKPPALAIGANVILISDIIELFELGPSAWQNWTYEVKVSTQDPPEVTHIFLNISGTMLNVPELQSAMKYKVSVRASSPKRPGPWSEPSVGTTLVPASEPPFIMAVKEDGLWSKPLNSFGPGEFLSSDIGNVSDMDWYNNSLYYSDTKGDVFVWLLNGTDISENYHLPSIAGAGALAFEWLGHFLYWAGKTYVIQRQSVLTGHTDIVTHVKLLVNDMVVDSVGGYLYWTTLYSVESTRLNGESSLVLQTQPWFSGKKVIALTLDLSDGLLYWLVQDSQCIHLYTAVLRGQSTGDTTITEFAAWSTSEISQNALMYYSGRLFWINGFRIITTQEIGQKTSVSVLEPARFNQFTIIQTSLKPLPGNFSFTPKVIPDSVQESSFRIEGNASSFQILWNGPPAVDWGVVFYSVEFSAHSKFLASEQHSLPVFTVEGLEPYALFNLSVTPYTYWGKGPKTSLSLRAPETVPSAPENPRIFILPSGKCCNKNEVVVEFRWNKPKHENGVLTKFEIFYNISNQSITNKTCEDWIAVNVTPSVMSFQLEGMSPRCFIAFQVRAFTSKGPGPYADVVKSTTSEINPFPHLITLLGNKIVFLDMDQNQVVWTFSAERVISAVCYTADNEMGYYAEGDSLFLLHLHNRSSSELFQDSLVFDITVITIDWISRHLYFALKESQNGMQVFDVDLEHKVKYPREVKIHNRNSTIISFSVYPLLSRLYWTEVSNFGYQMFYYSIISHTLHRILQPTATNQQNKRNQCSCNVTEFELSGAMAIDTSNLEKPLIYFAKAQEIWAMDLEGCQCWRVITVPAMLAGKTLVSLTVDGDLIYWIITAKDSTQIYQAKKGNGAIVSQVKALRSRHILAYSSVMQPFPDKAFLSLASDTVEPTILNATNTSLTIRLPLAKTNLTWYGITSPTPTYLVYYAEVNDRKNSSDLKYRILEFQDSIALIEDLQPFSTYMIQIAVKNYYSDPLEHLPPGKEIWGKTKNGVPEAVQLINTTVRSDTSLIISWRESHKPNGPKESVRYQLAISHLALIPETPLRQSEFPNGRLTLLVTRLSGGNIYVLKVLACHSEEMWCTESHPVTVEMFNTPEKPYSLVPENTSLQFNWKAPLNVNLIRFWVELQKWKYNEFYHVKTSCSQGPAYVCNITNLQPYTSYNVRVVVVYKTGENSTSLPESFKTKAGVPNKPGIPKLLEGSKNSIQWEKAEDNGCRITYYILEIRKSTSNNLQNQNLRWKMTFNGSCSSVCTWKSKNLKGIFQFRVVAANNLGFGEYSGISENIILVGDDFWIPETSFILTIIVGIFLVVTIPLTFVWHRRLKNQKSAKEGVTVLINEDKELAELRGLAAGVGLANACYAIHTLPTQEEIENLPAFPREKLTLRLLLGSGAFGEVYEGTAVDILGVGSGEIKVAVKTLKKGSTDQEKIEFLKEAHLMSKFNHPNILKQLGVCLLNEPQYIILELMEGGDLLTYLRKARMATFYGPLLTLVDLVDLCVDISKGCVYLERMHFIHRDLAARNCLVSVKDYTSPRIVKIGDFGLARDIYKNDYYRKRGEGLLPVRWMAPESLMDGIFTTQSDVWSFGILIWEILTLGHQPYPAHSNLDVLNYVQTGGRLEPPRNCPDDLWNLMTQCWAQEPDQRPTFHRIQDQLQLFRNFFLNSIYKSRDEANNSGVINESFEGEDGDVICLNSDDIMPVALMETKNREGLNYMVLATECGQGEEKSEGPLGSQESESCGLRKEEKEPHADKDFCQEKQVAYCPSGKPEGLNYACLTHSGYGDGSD
Chain of UniProt P11802 (whole entry, looked up): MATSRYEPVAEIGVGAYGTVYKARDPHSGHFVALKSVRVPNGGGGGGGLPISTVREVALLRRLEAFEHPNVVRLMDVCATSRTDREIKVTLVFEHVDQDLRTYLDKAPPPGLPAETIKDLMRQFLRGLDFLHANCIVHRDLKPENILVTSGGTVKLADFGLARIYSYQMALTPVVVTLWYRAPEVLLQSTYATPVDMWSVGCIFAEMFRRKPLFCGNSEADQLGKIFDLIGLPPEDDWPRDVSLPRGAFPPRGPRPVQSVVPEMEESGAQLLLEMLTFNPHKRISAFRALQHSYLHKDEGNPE
Chain of UniProt P27361 (whole entry, looked up): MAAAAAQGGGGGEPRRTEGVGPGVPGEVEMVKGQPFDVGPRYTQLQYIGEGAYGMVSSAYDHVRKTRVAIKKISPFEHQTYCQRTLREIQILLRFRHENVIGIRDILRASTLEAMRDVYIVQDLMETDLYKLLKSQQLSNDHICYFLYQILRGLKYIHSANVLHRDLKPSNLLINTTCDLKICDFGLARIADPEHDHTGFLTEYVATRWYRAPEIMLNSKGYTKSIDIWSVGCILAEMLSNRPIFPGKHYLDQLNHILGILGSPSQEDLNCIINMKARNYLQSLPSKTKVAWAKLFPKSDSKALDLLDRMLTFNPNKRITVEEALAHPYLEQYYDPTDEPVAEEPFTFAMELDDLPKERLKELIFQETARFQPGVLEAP
Chain of UniProt O43293 (whole entry, looked up): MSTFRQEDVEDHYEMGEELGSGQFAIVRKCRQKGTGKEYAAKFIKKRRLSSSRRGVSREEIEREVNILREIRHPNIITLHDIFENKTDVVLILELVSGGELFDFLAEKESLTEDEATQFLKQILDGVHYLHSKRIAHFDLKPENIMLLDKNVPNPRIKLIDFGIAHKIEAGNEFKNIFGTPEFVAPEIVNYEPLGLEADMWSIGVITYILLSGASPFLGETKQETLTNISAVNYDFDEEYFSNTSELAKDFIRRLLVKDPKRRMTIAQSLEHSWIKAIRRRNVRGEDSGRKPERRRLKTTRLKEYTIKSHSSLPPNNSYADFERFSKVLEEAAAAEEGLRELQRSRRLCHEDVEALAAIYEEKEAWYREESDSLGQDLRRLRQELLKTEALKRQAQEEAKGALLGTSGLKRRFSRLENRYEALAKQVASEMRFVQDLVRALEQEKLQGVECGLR
Chain of UniProt Q8IY84 (whole entry, looked up): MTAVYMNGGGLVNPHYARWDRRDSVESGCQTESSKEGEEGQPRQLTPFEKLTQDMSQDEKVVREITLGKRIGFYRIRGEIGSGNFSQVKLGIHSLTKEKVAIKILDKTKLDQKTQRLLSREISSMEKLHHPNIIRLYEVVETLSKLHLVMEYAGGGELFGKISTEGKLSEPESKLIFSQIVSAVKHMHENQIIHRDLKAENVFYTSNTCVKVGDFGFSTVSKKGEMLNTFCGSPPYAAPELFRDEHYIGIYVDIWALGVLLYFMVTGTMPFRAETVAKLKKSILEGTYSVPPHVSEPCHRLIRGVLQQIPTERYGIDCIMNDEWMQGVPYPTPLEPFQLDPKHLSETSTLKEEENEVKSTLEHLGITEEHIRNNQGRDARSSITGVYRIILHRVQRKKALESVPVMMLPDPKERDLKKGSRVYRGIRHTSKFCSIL

Set 1 — concentration: 1 µM
SMILES: C=CC(=O)N1CCC([C@@H]2CCNc3c(C(N)=O)c(-c4ccc(Oc5ccccc5)cc4)nn32)CC1
target | assay | inhibition [%]
TGFBR1 (Homo sapiens, UniProt P36897) | cell-free assay | 6
DAPK3 (Homo sapiens, UniProt O43293) | enzyme activity, inhibitor | 11
CDK4 (Homo sapiens, UniProt P11802) | enzyme activity, inhibitor | 0
MAPK3 (Homo sapiens, UniProt P27361) | enzyme activity, inhibitor | 3

Set 2 — Structure (SMILES): CSc1cccnc1N1CCN(Cc2nc3ccccc3[nH]2)CC1; effect on: cell-free assay; method: competition with immobilised ligand; concentration: 1 µM
target | remaining binding [%]
Ribosomal protein S6 kinase alpha-5, N-terminal kinase domain (RPS6KA5, Homo sapiens, UniProt O75582) | 100
IRAK1 (Homo sapiens, UniProt P51617) | 73
OXSR1 (Homo sapiens, UniProt O95747) | 78
ROS1 (Homo sapiens, UniProt P08922) | 100
RET (Homo sapiens, UniProt P07949) | 94
NIM1K (Homo sapiens, UniProt Q8IY84) | 84
TAOK2 (Homo sapiens, UniProt Q9UL54) | 95
Tyrosine-protein kinase ABL1, phosphorylated (ABL1, Homo sapiens, UniProt P00519, F317I) | 74

Set 3 — method: LC-MS/MS; sample: plasma
SMILES: COc1ccc(-c2c(Nc3ccccn3)[nH]c3c(C4=CCCCC4)c(-c4ccccc4)nn3c2=O)cc1
assay | test system | setting | plasma concentration
measured: S-adenosylmethionine | human cancer patients | 200 mg BID, 8 h, mean, cycle 1 day 200 | 11.8 ng/mL
measured: methionine | human cancer patients | 200 mg BID, 2 h, median, cycle 1 day 200 | 86400 ng/mL
 | human | oral, 200 mg twice daily, 1 h, median | 12100 ng/mL
measured: methionine | human cancer patients | QD, dose not given, 2 h, mean, cycle 1 day 50 | 70700 ng/mL
measured: methionine | human cancer patients | QD, dose not given, 4 h, geometric mean, cycle 1 day 50 | 59300 ng/mL
measured: S-adenosylmethionine | human cancer patients | 50 mg QD, 4 h, median, cycle 1 day 50 | 18.9 ng/mL
 | human | oral, 200 mg twice daily, 6 h, geometric mean | 9740 ng/mL
 | human | oral, 200 mg twice daily, 1 h, geometric mean | 12500 ng/mL

Set 4 — effect on: enzyme activity; mode: inhibitor; concentration: 0.5 µM; baseline: control
Target: TGF-beta receptor type-2 (TGFBR2, Homo sapiens, UniProt P37173)
Chain of UniProt P37173 (whole entry, looked up): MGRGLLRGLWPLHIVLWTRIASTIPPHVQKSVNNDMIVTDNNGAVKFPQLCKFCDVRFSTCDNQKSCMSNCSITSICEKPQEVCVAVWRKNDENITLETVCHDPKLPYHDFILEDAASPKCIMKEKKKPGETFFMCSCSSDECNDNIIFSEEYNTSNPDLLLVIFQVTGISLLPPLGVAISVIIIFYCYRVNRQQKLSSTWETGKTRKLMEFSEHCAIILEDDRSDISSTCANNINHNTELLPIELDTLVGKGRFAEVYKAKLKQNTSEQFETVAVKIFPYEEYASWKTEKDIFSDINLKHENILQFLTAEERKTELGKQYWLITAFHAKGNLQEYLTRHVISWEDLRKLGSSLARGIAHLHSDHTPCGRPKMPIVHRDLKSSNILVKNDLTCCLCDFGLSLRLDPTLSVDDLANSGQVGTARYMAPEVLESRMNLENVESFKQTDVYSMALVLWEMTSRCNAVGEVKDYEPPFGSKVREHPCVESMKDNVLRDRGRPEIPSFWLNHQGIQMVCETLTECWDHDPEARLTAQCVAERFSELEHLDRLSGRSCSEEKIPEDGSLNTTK
SMILES | remaining activity [%]
C#Cc1cccc(Nc2ncnc3cc(OCCOC)c(OCCOC)cc23)c1 | 91.8
Nc1[nH]nc2nc3ccccc3nc12 | 82.4
COc1ccc(CNC(=O)Nc2ncc([N+](=O)[O-])s2)cc1 | 117
COc1cc2nccc(Oc3ccc(NC(=S)NC(=O)c4ccccc4C)cc3)c2cc1OC | 96.7
Cn1c2ccccc2c2c3c(c4c5ccccc5n(CCC#N)c4c21)CNC3=O | 117
O=C1NC(=O)C(c2cn(CCCO)c3ncccc23)=C1c1cnccn1 | 122
COc1ccc(OC)c2c(=S)c3ccccc3[nH]c12 | 109
COc1ccc(C(=O)Nc2sc3c(c2C(N)=O)CCCC3)cc1OC | 134
O=C1NC(=O)C(c2cn(CCCn3ccnc3)c3ccccc23)=C1Nc1ccccc1 | 134
CN(C)c1ccc(C=C2C(=O)Nc3ccccc32)cc1 | 124
O=c1c2ccccc2[nH]c(=S)n1CCN1CCC(=C(c2ccc(F)cc2)c2ccc(F)cc2)CC1 | 119
O=C(Nc1cccc(Nc2cc(Nc3cccc(C(F)(F)F)c3)ncn2)c1)C1CC1 | 105
CO[C@H]1C[C@@H]2CC[C@@H](C)[C@@](O)(O2)C(=O)C(=O)N2CCCC[C@H]2C(=O)O[C@H]([C@H](C)C[C@@H]2CC[C@@H](O)[C@H](OC)C2)CC(=O)[C@H](C)/C=C(\C)[C@@H](O)[C@@H](OC)C(=O)[C@H](C)C[C@H](C)/C=C/C=C/C=C/1C | 136
COc1cc2ncnc(Nc3ccc(Oc4ccccc4)cc3)c2cc1OC | 137
Cc1ccc(NC(=O)c2ccc(CN3CCN(C)CC3)cc2)cc1Nc1nc(-c2cccnc2)cs1 | 101

Single results of other studies
SMILES | tested on | assay | test system | setting | measurement | value
CNCCCC12CCC(c3ccccc31)c1ccccc12 | DNA polymerase theta, ATPase domain (POLQ, Homo sapiens, UniProt O75417) | inhibitor |  | 77 µM | remaining activity | 101%
CC(C)n1cnc(-c2ccc(F)cc2)c1-c1ncc(C(=O)Nc2ccc(N3CCN(C)CC3)cc2)[nH]1 |  |  | human, idiopathic pulmonary fibrosis | 30 mg once daily, trial, treatment-emergent | patients with Nasopharyngitis | 0%

For quick reference, copied from above (set 4):
SMILES | remaining activity [%]
Cn1c2ccccc2c2c3c(c4c5ccccc5n(CCC#N)c4c21)CNC3=O | 117
O=C1NC(=O)C(c2cn(CCCO)c3ncccc23)=C1c1cnccn1 | 122
COc1ccc(OC)c2c(=S)c3ccccc3[nH]c12 | 109
COc1ccc(C(=O)Nc2sc3c(c2C(N)=O)CCCC3)cc1OC | 134
O=C1NC(=O)C(c2cn(CCCn3ccnc3)c3ccccc23)=C1Nc1ccccc1 | 134
